Measured values of several laboratories.
± marks the error that the study gave.
Organism: varicella-zoster virus

O=c1nc(NC2CC2)c2ncn(CCOCP(=O)(O)O)c2[nH]1  EC50 (plaque formation; HEL, TK- 07-1): > 100 µM
O=C(N/N=C1\C(=O)Nc2ccc([N+](=O)[O-])cc21)N/N=C1\C(=O)Nc2ccc([N+](=O)[O-])cc21  EC50 (plaque formation; HEL, TK+): > 20 µM
O=Cc1cc(Cn2cc(F)c(=O)[nH]c2=O)ccc1O  EC50 (plaque formation, plaque reduction; HEL fibroblasts, TK+ strain OKA): > 100 µM
NC1=NC(=O)N(CC(O)C(F)(F)F)CN1 (centres unmarked)  EC50 (plaque formation; HEL, TK-deficient 07-1): > 100 µM
O=C(N/N=C1\C(=O)Nc2ccccc21)N/N=C1\C(=O)Nc2ccccc21  EC50 (plaque formation; HEL, TK-): > 100 µM
Cc1cn(Cc2ccc(O)c(C=O)c2)c(=O)[nH]c1=O  EC50 (plaque formation, plaque reduction; HEL fibroblasts, TK- strain 07-1): > 100 µM
CCCCN1C(=O)c2cccc3cc(NC(=O)[C@H]4C[C@@H](P(=O)(OCC)OCC)N(C)O4)cc(c23)C1=O (racemic)  EC50 (viral plaque formation, plaque reduction; HEL, thymidine kinase deficient): 45 µM
CCOC(=O)C(C)NP(=O)(COC(CF)CN1CN2C=C(c3ccccc3)NC2=NC1=O)NC(C)C(=O)OCC (centres unmarked)  EC50 (plaque formation; HEL, TK-deficient 07-1): > 100 µM
O=C1Nc2ccccc2/C1=N/NC(=S)N/N=C1\C(=O)Nc2ccccc21  EC50 (plaque formation; HEL, TK+): > 20 µM
CCOC(=O)C(C)NP(=O)(COC(CF)CN1CN2C=C(c3ccc(OC)cc3)NC2=NC1=O)NC(C)C(=O)OCC (centres unmarked)  EC50 (plaque formation; HEL, TK-deficient 07-1): > 100 µM
O=C1/C(=N\NC(=S)NN=Cc2ccccc2)c2ccccc2N1Cc1ccccc1  EC50 (plaque formation; HEL, TK-): > 20 µM
CCCCCCCCCCCCCCCCOCCCOP(=O)(O)COCCn1cnc2c(=O)[nH]c(=O)[nH]c21  EC50 (plaque formation; HEL, TK- 07-1): 0.64 ± 0.77 µM
Cc1nn(Cc2ccc(O)c(C=O)c2)c(=O)[nH]c1=O  EC50 (plaque formation, plaque reduction; HEL fibroblasts, TK+ strain OKA): 47 µM
CCOC(=O)C(C)NP(=O)(COC(CF)CN1CN2C=C(c3ccc([N+](=O)[O-])cc3)NC2=NC1=O)NC(C)C(=O)OCC (centres unmarked)  EC50 (plaque formation; HEL, TK-deficient 07-1): > 100 µM
O=Cc1cc(Cn2ccc(=O)[nH]c2=O)ccc1O  EC50 (plaque formation, plaque reduction; HEL fibroblasts, TK- strain 07-1): > 100 µM
O=c1[nH]c(=O)n([C@H]2C[C@H](O)[C@@H](CO)O2)cc1/C=C/Br  EC50 (plaque formation; HEL, TK-deficient 07-1): 26.7 ± 19 µM
Cc1ccc2c(c1)/C(=N/NC(=O)N/N=C1\C(=O)Nc3ccc(C)cc31)C(=O)N2  EC50 (plaque formation; HEL, TK+): > 100 µM
Nc1ccn(C[C@@H](CO)OCP(=O)(O)O)c(=O)n1  EC50 (plaque formation; HEL, TK- 07-1): 0.78 ± 0.32 µM
O=c1[nH]c(=O)n([C@H]2C[C@H](O)[C@@H](CO)O2)cc1/C=C/Br  EC50 (plaque formation; HEL, TK+): 2.1 µM
O=c1[nH]c(=O)n([C@H]2C[C@H](O)[C@@H](CO)O2)cc1/C=C/Br  EC50 (plaque formation; HEL, Oka TK+): 0.019 ± 0.01 µM
